# Experimental data collected from several papers.
# Protocols differ between the studies behind these lines. Numbers after ± are the reported error.
Compound,tested on,test,system,conditions,scale,quantity,value
COc1cc(CNC(=O)C[C@H](C)CCC=C(C)C)ccc1OCc1cn(-c2ccccc2)nn1,HOP-92,SRB,,"10 µM, 48 h",,growth percent,104%
CC[C@H]1[C@@H](O)[C@@H]2[C@H](CC[C@]3(C)[C@@H]([C@H](C)CCOS(=O)(=O)[O-])CC[C@@H]23)[C@@]2(C)CC[C@@H](O)C[C@@H]12.[Na+],,histology,"ob/ob NASH mouse model, liver","oral, 10 mg/kg once daily, before treatment, baseline of 8 week study, scale 0 to 3",direction not given,inflammation score,3
COc1cc(CNC(=O)C[C@H](C)CCC=C(C)C)ccc1OCc1cn(-c2ccc(Cl)c(Cl)c2)nn1,SN12C,SRB,,"10 µM, 48 h",,growth percent,38.2%
Cc1cc(O)c(C=O)c2c1C(=O)Oc1c(CO)c(O)c3c(c1O2)C(O)OC3=O (stereo not drawn),,mating test,"rat, male, streptozotocin-induced diabetes",10 mg/kg,,corpora lutea per female,12.3 ± 0.48
O=Cc1c(O)ccc2ccccc12,HUVEC,"RNA sequencing, measured: FABP4",,"75 µM, 24 h",reference: DMSO,log2 fold change,-3.15
CC(=O)OC[C@H]1O[C@@H](Sc2sc(C(=O)c3ccc(C)cc3)c(N)c2-c2nc3ccccc3s2)[C@H](OC(C)=O)[C@@H](OC(C)=O)[C@H]1OC(C)=O,TK-10,SRB,,"10 µM, 48 h",reference: untreated,growth,125%
COC(=O)c1cnc(-c2cnccn2)cc1C(=O)OC.COC(=O)c1cnc(-c2cnccn2)cc1C(=O)OC.O.O.O.O=S(=O)([O-])C(F)(F)F.O=S(=O)([O-])C(F)(F)F.[Cu+2],calf thymus DNA,ethidium bromide displacement,,,,quenching rate constant,2.63e+10 M⁻¹ s⁻¹
CC(=O)OC[C@H]1O[C@@H](Sc2sc(C(=O)c3ccc(Br)cc3)c(N)c2-c2nc3ccccc3s2)[C@H](OC(C)=O)[C@@H](OC(C)=O)[C@H]1OC(C)=O,786-0 renal cancer,SRB,,"10 µM, 48 h",,growth percent,94.4%
COc1cc(CNC(=O)C[C@H](C)CCC=C(C)C)ccc1OCc1cn(-c2cccc(Cl)c2)nn1,SK-OV-3 ovarian cancer cells,SRB,,"10 µM, 48 h",,growth percent,75.1%

# Some of these lines once more:
Compound,tested on,test,system,conditions,scale,quantity,value
CC(=O)OC[C@H]1O[C@@H](Sc2sc(C(=O)c3ccc(C)cc3)c(N)c2-c2nc3ccccc3s2)[C@H](OC(C)=O)[C@@H](OC(C)=O)[C@H]1OC(C)=O,TK-10,SRB,,"10 µM, 48 h",reference: untreated,growth,125%
